# Results from different studies.
# Compare with care: the assays were run in different laboratories. ± gives the spread as reported.
Substance,assay,test system,conditions,how to read,quantity,result
CNCc1ccc(-c2[nH]c3cc(F)cc4c3c2CCNC4=O)cc1,,"human patients, plasma","oral, 300 mg once daily, day 15, 24 h, steady state, arithmetic mean",,AUC(0-t),9610 ng·h/mL
CN[C@H](CC(C)C)C(=O)N[C@H]1C(=O)N[C@@H](CC(N)=O)C(=O)N[C@H]2C(=O)N[C@H]3C(=O)N[C@H](C(=O)N[C@H](C(=O)O)c4cc(O)cc(O)c4-c4cc3ccc4O)[C@H](O)c3ccc(c(Cl)c3)Oc3cc2cc(c3O[C@@H]2O[C@H](CO)[C@@H](O)[C@H](O)[C@H]2O[C@H]2C[C@](C)(N)[C@H](O)[C@H](C)O2)Oc2ccc(cc2Cl)[C@H]1O,,"pig, plasma","intravenous, 1000 mg, together with: MIC 8 µg/mL",,time to reach MIC,7 min
COc1c(OCCCN2CCOCC2)ccc2c1N=C(NC(=O)c1cnc(N)nc1)N1CCN=C21,,"human, solid tumours, plasma","intravenous, 0.8 mg/kg, cycle 1 day 1",,AUC(0-25 h),1690 ng·h/mL
CC1=C(/C=C/C(C)=C/C=C/C(C)=C/C(=O)O)C(C)(C)CCC1,refers to: developmental marker expression,hiPSC-derived embryoid bodies,teratogenicity 20 %,,threshold concentration,0.1 nM
CC(=O)[C@H]1CC[C@H]2[C@@H]3CCC4=CC(=O)CC[C@]4(C)[C@H]3CC[C@]12C,shake-flask,soybean oil,37 °C,,thermodynamic solubility,30.4 ± 1.28 mg/g
O=C(CCc1ccccc1)c1cc(F)ccc1OCC(O)CN1CCC(c2ccccc2)CC1 (stereo not shown),metabolic stability,"female mouse, liver microsomes","20 µM, pH 7.4",,scaled CLint,27.3 mL/min/kg
CC(C)(Oc1ccc(C(=O)c2ccc(Cl)cc2)cc1)C(=O)O,shake-flask,Captex 355,37 °C,,thermodynamic solubility,1.97 ± 0.05 mg/g
acyl ghrelin (human),,"Ghsr knockout mice, olfactory bulb","intravenous, dose not given, 10 min, vascular space corrected",,tissue/serum ratio,7.79 µL/g
CC1=C2C[C@H]3[C@@H](CC[C@@H]4C[C@H](NS(C)(=O)=O)CC[C@@]43C)[C@@H]2CC[C@@]2(C1)O[C@@H]1C[C@H](C)CN[C@H]1[C@H]2C,,"patients, plasma","oral, 40 mg single, day -7, cycle 1",,AUC(0-24),122 ng·h/mL
CS/C(S)=N/CCCC[S+](C)[O-] (racemic),"RT-PCR, refers to: Cyp2b3","rat, colon","oral gavage, 200 mg/kg, dosed for four days",baseline: vehicle,mRNA fold change,0.992

# Repeated from above:
Substance,assay,test system,conditions,how to read,quantity,result
acyl ghrelin (human),,"Ghsr knockout mice, olfactory bulb","intravenous, dose not given, 10 min, vascular space corrected",,tissue/serum ratio,7.79 µL/g
